Published values pooled from the literature.
Several values in a cell are separate wells, animals, samples, runs or records. ± gives the spread as reported.

SMILES	cell line	assay	test system	setting	scale	endpoint	result
CC(C)C[C@H](NC(=O)[C@H](CCc1ccccc1)NC(=O)CN1CCOCC1)C(=O)N[C@@H](Cc1ccccc1)C(=O)N[C@@H](CC(C)C)C(=O)[C@@]1(C)CO1	patient normal conditionally reprogrammed cells	RNA-seq, refers to: IL36B mRNA	human	concentration not given	reference: DMSO	fold change	-3890
Cc1ccc2c(c1)C(=O)C1(O)CCN(c3ccccc3)C1=N2 (stereo not drawn)	COS-7	cytokinesis	–	24 h	–	EC50	1900 nM
Nc1ncnc2c1ncn2[C@@H]1O[C@@H]2COP(=O)(O)O[C@H]3[C@@H](O)[C@H](n4cnc5c(=O)[nH]cnc54)O[C@@H]3COP(=O)(O)O[C@H]2[C@H]1O	HFF-1	RNA sequencing, refers to: Reactome R-HSA-5627123	–	downregulated pathway	reference: Zika virus alone	pathway fold enrichment	17
COc1c(CCC[P+](c2ccccc2)(c2ccccc2)c2ccccc2)cc2c(c1OC)OCO2.[I-]	Hs-578T	SRB	–	–	–	GI50	-5.76 log M
O=C(O)C(Cl)Cl	primary rat hippocampal/cortical neuron-glia cultures	–	–	1 µM, with: 1 µM α-synuclein oligomers	–	reversal of trafficking deficit	-16.4%
Cc1nn(-c2nc3ccc(Cl)c(Cl)c3[nH]2)c(O)c1C1OC(=O)c2ccccc21 (stereo not drawn)	RAW-ISG	CCK-8	–	0.3 µM	–	viability	104% and 107% and 114% and 99%
CC(c1ccccc1)(c1ccc(O)cc1)c1ccc(O)cc1	HepG2 spheroids	Hoechst flow cytometry	–	0.01 µM, 96 h	–	G1 phase cells	76.2 ± 7.74%
COc1ccc2c(c1)[nH]c1c(C)nccc12	DU-145	bisulfite pyrosequencing, refers to: RASSF1A promoter CpG site 18	–	10 µM, 16 h	–	DNA methylation	90%
CCN(CC)c1ccc(C=NNC(=O)CSc2nc3ccccc3c(=O)n2Cc2ccc(S(N)(=O)=O)cc2)c(O)c1	UACC-62	NCI five-dose screen	–	–	–	CC50	> 100 µM
C=C(C)[C@@H]1CCC(C)=C[C@H]1c1c(O)cc(CCCCC)cc1O	human sperm	modified Kremer test	–	10 µM, 1% methylcellulose, 1 cm	reference: vehicle	sperm penetration	1.33 ± 0.6 fold
COc1cnc(OC)n2nc(NS(=O)(=O)c3c(OCC(F)F)cccc3C(F)(F)F)nc12	HEK293T	cytotoxicity, CCK-8	–	25 µM, 72 h	–	inhibition	0.37 ± 0.44%
Cc1cc(C(C)(C)c2ccc(O)c(C)c2)ccc1O	HepG2 spheroids	Hoechst flow cytometry	–	1 µM, 24 h	–	G2 phase cells	15.9 ± 4.31%
COc1ccc([C@H]2c3[nH]c4ccc(Cl)cc4c3CCN2C(=O)Oc2ccc(Cl)cc2)cc1	CD19+ B cells with PBMC	cytokine secretion, refers to: TNF-α	–	0.01 µM, 72 h, BioMAP BT system	–	inhibition	49%
Cc1cccc(-c2cccc(C)n2)n1.Cc1cccc(-c2cccc(C)n2)n1.F[P-](F)(F)(F)(F)F.F[P-](F)(F)(F)(F)F.[Ru+2].c1ccc2cc(-c3nc4c5cccnc5c5ncccc5c4[nH]3)ccc2c1	SK-MEL-28	cell viability	–	normoxia, with: green light 523 nm, 100 J/cm2	–	EC50	29900 ± 1200 nM
COc1c(C)c2c(c(O)c1C/C=C(\C)CCC(=O)O)C(=O)OC2	A-431	cell proliferation	–	–	–	IC50	282 nM
Oc1ccc(C2(c3ccc(O)cc3)c3ccccc3-c3ccccc32)cc1	HepG2 spheroids	Hoechst flow cytometry	–	1 µM, 96 h	–	S phase cells	9.03 ± 1.17%
COc1ccc2c(c1)CC[C@@H]1[C@@H]2CC[C@]2(C)[C@@H](NCCCCCCN3C(=O)C=CC3=O)CC[C@@H]12	N2a	fluorescence signal increase, inhibitor	–	1 µM, with: UTP 300 µM	–	effect on signal	decreased
COc1cc(CCC[P+](c2ccccc2)(c2ccccc2)c2ccccc2)c(OC)c2c1OCO2.[I-]	MDA-MB-435	SRB	–	–	–	LC50	-4.48 log M

SMILES	cell line	assay	test system	setting	scale	endpoint	result
O=C1N(Cc2ccccc2Cl)c2ccccc2C12NN=C(c1ccccc1)S2 (stereo not drawn)	MDA-MB-468	gene expression array, refers to: NQO1 mRNA	–	10 µM, 12 h	reference: untreated, down	fold change	1.58
CN1CCN(S(=O)(=O)c2cc([N+](=O)[O-])ccc2N(CCOS(C)(=O)=O)CCOS(C)(=O)=O)CC1	sample H BCP-ALL PDX cells	cell viability	ex vivo	–	–	IC50	859 nM
CCn1cc(-c2cc(Cn3ccoc3=N)cc3c2CCN([C@@H](C)c2cc(OC)ccn2)C3=O)c(C(F)(F)F)n1	A101D	cell growth, inhibitor	–	120 h	–	EC50	60.1 nM
Cn1cncc1C1=CN(c2ncnc3[nH]cnc23)CCS1	SNB-19	–	–	CNS cancer	–	CC50	> 200 µM
O=C1CCP(=S)(c2ccccc2)CC1	HaCaT	ELISA	–	IC50, 72 h	–	IL-6 level	6.3 ± 0.42 pg/mL
Oc1cc(O)cc(-c2cc3ccc(O)cc3o2)c1	3T3	cell growth, MTT	–	12.5 µg/mL, 48 h	–	cell survival	67.4 ± 0.72%
Cc1cc(NS(=O)(=O)c2ccc(NC(=O)/C(C#N)=C/c3ccc(N4CCCCC4)cc3)cc2)no1	HCT-116	ELISA, refers to: Bcl2	–	IC50, 48 h, unit not given	reference: untreated	protein level	0.21
Cc1cc(Cl)c(Cl)cc1NC(=O)c1ccc(N2CCNCC2)c(C#N)c1	J774.A1	cytotoxicity	–	–	–	EC50	1900 ± 1600 nM
Nc1ncc(-c2nc(N3CCOCC3)nc(N3CCOCC3)n2)c(C(F)F)n1	Hs-578T	–	–	72 h	–	GI50	111 nM
O=C(NCCc1c[nH]c2ccccc12)C(=O)c1cn(Cc2ccc(Cl)cc2)c2ccccc12	BxPC-3, MDA-MB-231, PC-3, HeLa, C4-2, HEK293T	MTT	–	100 µM	–	cytotoxicity	not toxic
CC(C)N1CCC(NC2CCN(c3cccc(-c4cc5cc(F)ccc5[nH]4)c3)CC2)CC1	UACC-62	–	–	–	–	GI50	1810 nM
CC(C)=CCc1c(O)cc(O)cc1-c1cc2ccc(O)c(CC=C(C)C)c2o1	3T3	cell growth, MTT	–	100 µg/mL, 48 h	–	cell survival	33.7 ± 0.42%
Oc1ccc(C(c2ccc(O)cc2)(C(F)(F)F)C(F)(F)F)cc1	HepG2 spheroids	Hoechst flow cytometry	–	10 µM, 24 h	–	G1 phase cells	70.7 ± 5.6%
CN1CCN(C2(CNC3CCN(c4cccc(-c5cc6cc(F)ccc6[nH]5)c4)CC3)CCC2)CC1	Hs-578T	–	–	–	–	CC50	> 100 µM
Oc1cc(Cl)ccc1Oc1ccc(Cl)cc1Cl	HepG2	high content imaging, refers to: cell count	–	24 h, representative mode	–	point of departure	18.6 µM
C[C@H]1[C@H](C)CC[C@]2(C(=O)O)CC[C@]3(C)C(=CC[C@@H]4[C@@]5(C)CC[C@H](O)C(C)(C)[C@@H]5CC[C@]43C)[C@H]12	3T3	cell growth, MTT	–	50 µg/mL, 48 h	–	cell survival	45.86 ± 0.34%
C/C=C(/C)C(=O)O[C@H]1C(C)=C2[C@H]([C@@H]1OC(=O)CCCCCCC)[C@@](C)(OC(C)=O)C[C@H](OC(=O)CCC)[C@@]1(O)[C@H]2OC(=O)[C@@]1(C)O	HEK-293T	RNA-seq GSEA, refers to: Hallmark Notch signaling	–	500 nM, 6 h	direction not given	normalized enrichment score	-1.69
C[C@]12CC[C@H](O)C[C@H]1CC[C@@H]1[C@@H]2CC[C@]2(C)[C@@H](c3ccc(=O)oc3)CC[C@]12O	MCF7	RT-qPCR, refers to: CCND1	–	50 nM, 48 h, unit not given, with: estradiol	reference: untreated	mRNA level	0.716 and 0.939 and 1.03

For quick reference, copied from above:
SMILES	cell line	assay	test system	setting	scale	endpoint	result
O=C1N(Cc2ccccc2Cl)c2ccccc2C12NN=C(c1ccccc1)S2 (stereo not drawn)	MDA-MB-468	gene expression array, refers to: NQO1 mRNA	–	10 µM, 12 h	reference: untreated, down	fold change	1.58
COc1c(CCC[P+](c2ccccc2)(c2ccccc2)c2ccccc2)cc2c(c1OC)OCO2.[I-]	Hs-578T	SRB	–	–	–	GI50	-5.76 log M
Cc1cc(NS(=O)(=O)c2ccc(NC(=O)/C(C#N)=C/c3ccc(N4CCCCC4)cc3)cc2)no1	HCT-116	ELISA, refers to: Bcl2	–	IC50, 48 h, unit not given	reference: untreated	protein level	0.21
CC(C)=CCc1c(O)cc(O)cc1-c1cc2ccc(O)c(CC=C(C)C)c2o1	3T3	cell growth, MTT	–	100 µg/mL, 48 h	–	cell survival	33.7 ± 0.42%
COc1ccc2c(c1)CC[C@@H]1[C@@H]2CC[C@]2(C)[C@@H](NCCCCCCN3C(=O)C=CC3=O)CC[C@@H]12	N2a	fluorescence signal increase, inhibitor	–	1 µM, with: UTP 300 µM	–	effect on signal	decreased
Cc1cccc(-c2cccc(C)n2)n1.Cc1cccc(-c2cccc(C)n2)n1.F[P-](F)(F)(F)(F)F.F[P-](F)(F)(F)(F)F.[Ru+2].c1ccc2cc(-c3nc4c5cccnc5c5ncccc5c4[nH]3)ccc2c1	SK-MEL-28	cell viability	–	normoxia, with: green light 523 nm, 100 J/cm2	–	EC50	29900 ± 1200 nM
